Measurements of several laboratories.
Values joined by “and” are separate records of one study, mostly repeats; a detail may differ.
Target: Tyrosine-protein kinase TXK (TXK, Homo sapiens, UniProt P42681)

For Cc1ccc(C(=O)Nc2ccc(CN3CCN(C)CC3)c(C(F)(F)F)c2)cc1C#Cc1cnc2cccnn12, the upper asymptote was 87.4 (target engagement, NanoBRET; human cells).
With CCn1cc(C(=O)O)c(=O)c2c(N)c(F)c(NC3CCCCC3)cc21 the inhibition was -10.6% (kinase activity; 0.1 µM, with: ATP at Km).
O=C(Cc1ccc(OCc2ccccc2)cc1)NC1(C(=O)O)CCN(C(=O)c2ccc(-c3cccc(Cl)c3)cc2)CC1 — result for “activity vs control”: 112% (enzyme activity, inhibitor; 10 µM).
For Cc1cccc(O[C@H]2CCC[C@@H](C(C)CNCc3ccncc3)C2)c1 (relative stereo), the inhibition was -4% (enzyme activity, inhibitor; 10 µM).
With C=CC(=O)Nc1cccc(-c2cnc3[nH]cc(C(=O)NC(C)(C)C)c3n2)c1 the inhibition was 55% and 57% (kinase activity; 0.1 µM).
With CCN1CCN(Cc2ccc(C(=O)Nc3ccc(C)c(NCc4cnc5[nH]ccc5c4OC)c3)cc2C(F)(F)F)CC1 the remaining binding was 3.2% (binding, competition with immobilised ligand; 1 µM).
With C=CC(=O)N1CCc2ccc(-n3c(=O)ccc4cnc5ccc(-c6cnn(C)c6)cc5c43)cc21 the remaining binding was 59% (KINOMEscan; 1 µM; reference: DMSO control).
The remaining binding of Cc1cnc2nc1Nc1cccc(c1)COC/C=C/COCc1cc(ccc1OCCN1CCOCC1)N2 is reported as 53% (binding, competition with immobilised ligand; 0.1 µM).
COc1c(Cl)cccc1Nc1c(-c2ccncc2C#C[C@@]2(C)CCCN2C(=O)/C=C/CN(C)C)[nH]c2c1C(=O)NCC2 has a remaining binding of 71% (binding, competition with immobilised ligand; 3 µM).
NC(=O)C[C@H]1CCc2sc3ncnc(O[C@H]4CC[C@H](N5CCOCC5)CC4)c3c21 has an inhibition of 27% (enzyme activity, inhibitor; 10 µM).
CNC1C[S+]2CC[S+]3CC[S+](C1)[Ru-4]321([N]=C=S)[n]2c3ccc(OC)cc3c3c4c(c5cc(F)c[n+]1c5c32)C(=O)NC4=O (stereo not drawn) gave a remaining binding of 100% (KinomeScan; 0.1 µM; reference: untreated).
The remaining activity of Nc1ncc(-c2cc(-c3cnn(CC(F)(F)F)c3)ncc2F)nc1C(=O)NC1CNCC(F)C1 (stereo not drawn) is reported as 97.6% (enzyme activity; 1 µM; reference: DMSO control).
The remaining binding of COc1cc(Nc2nc(C)cc(-c3cnn4nc(OC)ccc34)n2)cc(C(F)(F)F)c1 is reported as 91% (binding, competition with immobilised ligand; 1 µM).
For CNC(=O)C[C@H](Cc1ccc(C#N)cc1)NC(=O)c1cc(-c2ccc(CN[C@H](C)c3ccc(C)cc3)o2)ccc1Cl, “activity vs control” read 96% (enzyme activity, inhibitor; 1 µM).
CCN1CCN(Cc2ccc(NC(=O)c3ccc(C)c(NC(=O)c4cncc(-c5cccs5)c4)c3)cc2C(F)(F)F)CC1 has a remaining binding of 0.65% (binding, competition with immobilised ligand; 1 µM).

A few entries again:
The remaining activity of Nc1ncc(-c2cc(-c3cnn(CC(F)(F)F)c3)ncc2F)nc1C(=O)NC1CNCC(F)C1 (stereo not drawn) is reported as 97.6% (enzyme activity; 1 µM; reference: DMSO control).
The remaining binding of COc1cc(Nc2nc(C)cc(-c3cnn4nc(OC)ccc34)n2)cc(C(F)(F)F)c1 is reported as 91% (binding, competition with immobilised ligand; 1 µM).
